Experimental data pooled from the literature.
Protocols differ between the studies behind these lines. Values joined by “and” are separate records of one study, mostly repeats; a detail may differ. Numbers after ± are the reported error.
CX3CR1: CX3C chemokine receptor 1 (CX3CR1, Homo sapiens, UniProt P49238)
Chain of UniProt P49238 (whole entry, looked up): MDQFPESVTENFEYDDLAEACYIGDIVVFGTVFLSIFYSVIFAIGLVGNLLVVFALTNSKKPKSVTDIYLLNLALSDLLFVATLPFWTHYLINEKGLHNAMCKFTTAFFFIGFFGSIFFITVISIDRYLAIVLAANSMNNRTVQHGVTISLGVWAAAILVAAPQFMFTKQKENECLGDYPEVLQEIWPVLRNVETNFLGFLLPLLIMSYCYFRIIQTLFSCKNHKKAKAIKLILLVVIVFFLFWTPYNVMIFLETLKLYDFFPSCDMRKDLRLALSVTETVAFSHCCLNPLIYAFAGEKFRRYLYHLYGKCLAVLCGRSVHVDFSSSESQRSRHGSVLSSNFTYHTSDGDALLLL
Chain of UniProt P27361 (whole entry, looked up): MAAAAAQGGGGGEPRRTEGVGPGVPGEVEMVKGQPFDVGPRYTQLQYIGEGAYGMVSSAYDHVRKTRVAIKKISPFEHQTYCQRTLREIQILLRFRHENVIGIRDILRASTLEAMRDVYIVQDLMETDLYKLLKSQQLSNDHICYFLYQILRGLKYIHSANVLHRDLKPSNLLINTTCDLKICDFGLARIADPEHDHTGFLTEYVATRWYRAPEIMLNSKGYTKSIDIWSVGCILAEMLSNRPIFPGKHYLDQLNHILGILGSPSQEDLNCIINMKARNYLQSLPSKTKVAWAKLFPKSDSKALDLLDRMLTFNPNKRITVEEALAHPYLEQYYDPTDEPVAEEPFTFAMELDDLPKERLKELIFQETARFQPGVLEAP
Chain of UniProt Q62351 (whole entry, looked up): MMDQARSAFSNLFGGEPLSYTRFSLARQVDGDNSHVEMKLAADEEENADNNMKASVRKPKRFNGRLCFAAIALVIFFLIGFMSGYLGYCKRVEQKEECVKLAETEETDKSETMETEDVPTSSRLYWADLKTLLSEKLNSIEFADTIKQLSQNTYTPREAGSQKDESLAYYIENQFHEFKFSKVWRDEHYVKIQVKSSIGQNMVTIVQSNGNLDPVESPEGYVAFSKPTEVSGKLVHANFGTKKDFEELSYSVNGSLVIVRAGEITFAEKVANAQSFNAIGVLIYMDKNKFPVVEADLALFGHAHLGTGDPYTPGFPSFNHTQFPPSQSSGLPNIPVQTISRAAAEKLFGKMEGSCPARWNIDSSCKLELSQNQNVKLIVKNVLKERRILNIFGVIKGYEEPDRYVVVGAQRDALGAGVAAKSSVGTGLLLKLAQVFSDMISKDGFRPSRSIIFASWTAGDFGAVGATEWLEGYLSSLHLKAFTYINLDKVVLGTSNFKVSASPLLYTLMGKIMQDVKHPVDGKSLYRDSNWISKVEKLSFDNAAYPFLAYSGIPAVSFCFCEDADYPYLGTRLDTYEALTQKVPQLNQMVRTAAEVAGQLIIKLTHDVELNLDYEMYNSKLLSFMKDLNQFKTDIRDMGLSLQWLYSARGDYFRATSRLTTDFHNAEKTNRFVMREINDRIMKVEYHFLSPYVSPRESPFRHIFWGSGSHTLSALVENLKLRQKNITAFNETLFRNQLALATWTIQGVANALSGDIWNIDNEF
Chain of UniProt O42275 (whole entry, looked up): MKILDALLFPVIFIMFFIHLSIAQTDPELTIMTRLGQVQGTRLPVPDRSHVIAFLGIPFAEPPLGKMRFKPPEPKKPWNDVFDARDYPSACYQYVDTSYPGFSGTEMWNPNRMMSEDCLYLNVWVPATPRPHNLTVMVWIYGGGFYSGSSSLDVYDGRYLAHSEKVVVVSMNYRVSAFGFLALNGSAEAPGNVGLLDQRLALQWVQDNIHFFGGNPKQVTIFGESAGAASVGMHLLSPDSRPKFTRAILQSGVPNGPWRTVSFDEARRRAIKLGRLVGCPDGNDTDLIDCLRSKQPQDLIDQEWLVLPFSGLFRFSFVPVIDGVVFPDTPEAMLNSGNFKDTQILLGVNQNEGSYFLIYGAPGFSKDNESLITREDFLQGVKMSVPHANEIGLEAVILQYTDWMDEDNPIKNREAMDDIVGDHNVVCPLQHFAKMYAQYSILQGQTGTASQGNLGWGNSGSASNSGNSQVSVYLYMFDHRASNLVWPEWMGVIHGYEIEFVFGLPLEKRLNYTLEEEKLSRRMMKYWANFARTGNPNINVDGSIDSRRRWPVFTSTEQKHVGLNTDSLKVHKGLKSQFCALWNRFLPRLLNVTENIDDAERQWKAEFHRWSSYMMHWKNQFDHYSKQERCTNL
Chain of UniProt P49662 (whole entry, looked up): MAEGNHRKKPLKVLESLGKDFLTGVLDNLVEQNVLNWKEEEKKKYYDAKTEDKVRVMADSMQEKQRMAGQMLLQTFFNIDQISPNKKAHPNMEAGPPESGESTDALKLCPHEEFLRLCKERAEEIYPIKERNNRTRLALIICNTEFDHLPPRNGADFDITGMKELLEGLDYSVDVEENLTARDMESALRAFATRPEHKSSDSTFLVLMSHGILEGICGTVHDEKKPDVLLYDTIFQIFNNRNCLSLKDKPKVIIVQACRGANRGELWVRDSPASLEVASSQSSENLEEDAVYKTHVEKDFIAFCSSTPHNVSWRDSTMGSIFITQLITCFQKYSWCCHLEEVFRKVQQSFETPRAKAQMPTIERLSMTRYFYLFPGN
Chain of UniProt Q9Y6M4 (whole entry, looked up): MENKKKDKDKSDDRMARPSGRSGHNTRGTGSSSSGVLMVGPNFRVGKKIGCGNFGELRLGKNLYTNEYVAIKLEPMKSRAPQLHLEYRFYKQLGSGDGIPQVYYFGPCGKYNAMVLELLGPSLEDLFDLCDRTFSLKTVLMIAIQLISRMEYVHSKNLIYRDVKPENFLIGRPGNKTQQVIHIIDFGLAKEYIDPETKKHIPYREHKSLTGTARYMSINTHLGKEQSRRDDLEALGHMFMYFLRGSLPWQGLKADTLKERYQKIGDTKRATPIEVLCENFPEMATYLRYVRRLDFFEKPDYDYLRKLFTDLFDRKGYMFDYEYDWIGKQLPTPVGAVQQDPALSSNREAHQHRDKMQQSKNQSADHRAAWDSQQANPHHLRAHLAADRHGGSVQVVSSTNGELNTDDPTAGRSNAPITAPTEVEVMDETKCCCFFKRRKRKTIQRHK
Chain of UniProt P24090 (whole entry, looked up): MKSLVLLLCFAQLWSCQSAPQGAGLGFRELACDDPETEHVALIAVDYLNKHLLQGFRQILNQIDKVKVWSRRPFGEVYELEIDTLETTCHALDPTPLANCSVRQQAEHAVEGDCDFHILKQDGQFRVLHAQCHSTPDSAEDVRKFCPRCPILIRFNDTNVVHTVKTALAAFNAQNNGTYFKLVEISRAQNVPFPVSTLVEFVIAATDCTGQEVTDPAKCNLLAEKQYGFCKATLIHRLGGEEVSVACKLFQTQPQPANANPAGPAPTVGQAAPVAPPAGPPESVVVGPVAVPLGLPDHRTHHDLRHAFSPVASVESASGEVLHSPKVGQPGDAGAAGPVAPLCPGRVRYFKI
Chain of UniProt Q96P68 (whole entry, looked up): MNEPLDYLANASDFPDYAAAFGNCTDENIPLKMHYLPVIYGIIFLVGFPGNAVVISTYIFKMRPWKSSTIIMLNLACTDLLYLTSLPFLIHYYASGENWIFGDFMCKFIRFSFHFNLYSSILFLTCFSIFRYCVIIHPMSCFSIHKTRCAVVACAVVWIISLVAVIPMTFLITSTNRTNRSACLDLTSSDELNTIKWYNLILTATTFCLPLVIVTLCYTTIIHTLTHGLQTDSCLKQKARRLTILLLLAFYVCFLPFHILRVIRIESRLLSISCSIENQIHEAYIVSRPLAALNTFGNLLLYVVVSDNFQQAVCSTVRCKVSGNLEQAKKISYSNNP
Chain of UniProt Q13133 (whole entry, looked up): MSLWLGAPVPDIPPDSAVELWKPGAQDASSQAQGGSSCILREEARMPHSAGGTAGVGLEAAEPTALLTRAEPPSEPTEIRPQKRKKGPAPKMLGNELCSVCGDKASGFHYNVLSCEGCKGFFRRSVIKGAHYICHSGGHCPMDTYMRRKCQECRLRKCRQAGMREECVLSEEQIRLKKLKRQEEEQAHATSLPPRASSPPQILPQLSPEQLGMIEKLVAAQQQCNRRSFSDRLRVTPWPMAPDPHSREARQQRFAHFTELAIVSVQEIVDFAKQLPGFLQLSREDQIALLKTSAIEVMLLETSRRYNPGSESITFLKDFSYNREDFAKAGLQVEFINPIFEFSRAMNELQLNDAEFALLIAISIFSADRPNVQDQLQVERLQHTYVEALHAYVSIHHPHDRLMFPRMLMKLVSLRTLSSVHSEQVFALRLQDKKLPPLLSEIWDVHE
Chain of UniProt Q02153 (whole entry, looked up): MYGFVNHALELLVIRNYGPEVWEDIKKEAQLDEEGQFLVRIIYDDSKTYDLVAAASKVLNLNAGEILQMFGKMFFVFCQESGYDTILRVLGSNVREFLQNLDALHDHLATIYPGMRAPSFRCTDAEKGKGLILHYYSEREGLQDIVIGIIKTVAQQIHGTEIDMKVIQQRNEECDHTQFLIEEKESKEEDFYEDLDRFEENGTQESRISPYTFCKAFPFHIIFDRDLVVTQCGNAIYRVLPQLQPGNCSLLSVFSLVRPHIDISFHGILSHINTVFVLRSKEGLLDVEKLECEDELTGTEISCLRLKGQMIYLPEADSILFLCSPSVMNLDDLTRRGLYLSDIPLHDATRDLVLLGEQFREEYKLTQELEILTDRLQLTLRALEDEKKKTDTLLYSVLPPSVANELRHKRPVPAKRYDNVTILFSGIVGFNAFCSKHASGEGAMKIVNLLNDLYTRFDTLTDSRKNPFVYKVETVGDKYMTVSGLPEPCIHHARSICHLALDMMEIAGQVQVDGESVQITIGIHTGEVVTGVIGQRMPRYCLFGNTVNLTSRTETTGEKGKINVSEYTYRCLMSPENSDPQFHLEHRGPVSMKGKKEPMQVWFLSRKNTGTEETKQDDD
Chain of UniProt Q8WZ82 (whole entry, looked up): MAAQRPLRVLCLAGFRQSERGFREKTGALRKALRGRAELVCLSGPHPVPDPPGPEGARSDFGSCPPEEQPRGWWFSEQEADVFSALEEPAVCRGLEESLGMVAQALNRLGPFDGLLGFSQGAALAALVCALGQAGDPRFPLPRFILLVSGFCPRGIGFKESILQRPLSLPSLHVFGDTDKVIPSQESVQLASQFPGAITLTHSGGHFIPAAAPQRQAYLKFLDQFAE

Compound	target	test	test system	conditions	how to read	quantity	result
O=c1c(O)c(N2CCN(Cc3ccc(Br)cc3F)CC2)oc2ccccc12	Mothers against decapentaplegic homolog 3 (Homo sapiens, UniProt P84022, K41A)	ITC		concentration not given		binding	no binding
COC(=O)[C@@]1(O)C[C@H]2O[C@]1(C)n1c3ccccc3c3c4c(c5c6ccccc6n2c5c31)C(=O)NC4	MAPK3 (Homo sapiens, UniProt P27361)	ADP-Glo		10.5 nM, added: MBP substrate		kinase activity	56.5% and 70.5% and 79.6%
COc1ccc(N2C(=O)N(c3c(C)cccc3Cl)Cc3cnc(Nc4ccc(C5CCN(C)CC5)cc4OC)nc32)nc1	CAMK1D (Homo sapiens, UniProt Q8IU85)	kinase activity		0.5 µM		inhibition	11%
O=C(O)CCCCN(CCc1cc(F)ccc1OCc1ccc(-c2ccc(C(F)(F)F)cc2)cc1)Cc1ccc(C(=O)O)cc1	GUCY1B1, with alpha-1 subunit (Homo sapiens, UniProt Q02153)	sGC activation, activator	human cells	concentration not given		cGMP level	increased
CC[C@H](C)[C@H](NC(C)=O)C(=O)N[C@@H](CCC(=O)O)C(=O)N[C@H](C(=O)N[C@H](C=O)CC(=O)O)[C@@H](C)O	Caspase-4 (CASP4, Homo sapiens, UniProt P49662)					Hill slope	-1.36
N#C[C@@H](O[C@@H]1O[C@H](CO)[C@@H](O)[C@H](O)[C@H]1O)c1ccc(O)cc1	BGLU7 (Oryza sativa, UniProt Q75I93)	substrate				Km	6.15 ± 0.81 mM
O=C(Nc1cnccc1Cl)N1CCN(Cc2ccc3c(c2)OC(F)(F)O3)CC1	CX3CR1	radioligand binding, inhibitor		concentration not given		inhibition	3% and -1%
O=C(c1ccc(Cl)cc1)N1CCN2C(=O)N(OC(=O)N3CCOc4ccccc43)C(=O)C2C1 (stereo not drawn)	OVCA2 (Homo sapiens, UniProt Q8WZ82)	MS-based ABPP	SW-620 conditioned medium	10 µM, 1 h, 37 °C	relative to: compound over DMSO, lower = more inhibition	mean protein ratio	0.94
CCN(CC)CCCC[C@H](NC(=O)[C@H](CC(C)C)NC(=O)[C@H](C)NC(=O)[C@H](Cc1ccccc1)NC(=O)c1ccc(C(C)(C)C)cc1)C(=O)N[C@@H](CO)C(=O)OC	CXCR2 (Homo sapiens, UniProt P25025)	radioligand binding		10 µM		specific binding	112%
COc1cc(CCNC(c2ccccc2O)C2CC2)c(OC)cc1C#N.Cl (stereo not drawn)	HTR2C (Homo sapiens, UniProt P28335)	Gq dissociation, agonist, BRET		10 µM	relative to: 5-HT	activity	~28%
O=C(CCCOc1ccc(Cl)cc1)NC1CCOC1=O (stereo not drawn)	qscR (Pseudomonas aeruginosa, UniProt G3XD77)	ligand binding, FRET displacement	intact cells	apparent affinity		K0.5	46 nM
CN(C(=O)n1cnc(-c2ccc[n+]([O-])c2)c1)C1CCCCC1	Alpha-2-HS-glycoprotein (Ahsg, Rattus norvegicus, UniProt P24090)	competitive ABPP with azido-FP probe	rat brain soluble fraction	10 µM, unit not given	relative to: DMSO	probe labelling	-12.1
CC[C@H](CO)Nc1nc(NCc2ccc(-c3ccccn3)cc2)c2ncn(C(C)C)c2n1	CSNK1G3 (Homo sapiens, UniProt Q9Y6M4)	KINOMEscan competition binding		10 µM, primary screen	direction not given	binding score	4.6
NC(=O)c1cc[n+](CC2=C(C(=O)O)N3C(=O)[C@@H](NC(=O)[C@@H](c4ccccc4)S(=O)(=O)[O-])[C@H]3SC2)cc1	Penicillin-binding protein 2a (pbp2a, Streptococcus pneumoniae, UniProt Q8DNB6)	inhibitor				kinact/KI	370 ± 7 M⁻¹ s⁻¹
Clc1cc2c(cc1Cl)Oc1cc(Cl)c(Cl)cc1O2	Uncharacterized protein (Takifugu rubripes, UniProt Q4JHL4)	reporter gene, agonist, dual-luciferase	COS-7	24 h		EC20	250 ± 160 pM
COc1cc2c(NC3CCN(C)CC3)cc(-c3ccc(C)o3)nc2cc1OCCCN1CCCC1	DNMT1 (Homo sapiens, UniProt P26358)	enzyme activity		411.52 nM		inhibition	-9.33%
CC(=O)C(c1ccccc1)c1ccccc1	NR1H3 (Homo sapiens, UniProt Q13133)			concentration not given		activity	inactive
[2H]c1c([2H])c([C@]2([2H])CCCN2C(=O)C(C)(C)Oc2ccc3cn[nH]c3c2)c([2H])c([2H])c1C([2H])([2H])[2H]	ITK (Homo sapiens, UniProt Q08881)	KINOMEscan		1 µM	relative to: DMSO control	remaining binding	77%
O=C[C@H](O)COP(=O)(O)O	TPI1 (Saccharomyces cerevisiae, UniProt P00942, Y208F)	substrate, GPDH/NADH-coupled		pH 4.9, 25 °C		kcat	~11 s⁻¹
C[C@H]1CN(c2n[nH]c3nc(N[C@H]4CC[C@H](NS(=O)(=O)CCC(F)(F)F)CC4)ncc23)CCO1	DDB1 (Homo sapiens, UniProt Q16531)	inhibitor, Kinobeads competition profiling		0.16 µM	relative to: vehicle	relative abundance	1.12
CN1CCN(c2cc(-c3ccncc3)c(-c3ccc4ccccc4c3)nn2)CC1	CX3CR1	agonist, FLIPR calcium		12.5 µM		activation	-1.7%
CC[C@@H](C)[C@@H](NC(=O)[C@@H](Cc1ccc(O)cc1)NC(=O)[C@H]1CCCN1C(=O)[C@@H](CCCNC(=N)N)NC(=O)[C@H](N)Cc1c[nH]cn1)C(=O)N[C@H](C)C(=O)N[C@H](Cc1c[nH]cn1)C(=O)N[C@H](CCCNC(=N)N)C(=O)N[C@H](CCCCNC(=O)c1cccc(S(=O)(=O)F)c1)C(=O)N[C@H](Cc1ccc(O)cc1)C(=O)N[C@H](CO)C(=O)N[C@H](Cc1ccccc1)C(N)=O	Transferrin receptor protein 1 (Tfrc, Mus musculus, UniProt Q62351)	flow cytometry	B16	6 h, unit not given	relative to: 0 h	surface expression	0.587 and 0.582
O=C1C2(Cl)C3(Cl)C4(Cl)C(Cl)(Cl)C5(Cl)C3(Cl)C1(Cl)C5(Cl)C24Cl (stereo not drawn)	Thyroxine 5-deiodinase (DIO3, Homo sapiens, UniProt P55073, C168G)	inhibitor		C168G variant		Hill slope	-2.84
O=C1NC(=O)[C@](CNC(=O)c2cnn(-c3ccccc3)n2)(C2CC2)N1	F11 (Homo sapiens, UniProt P03951)	inhibitor		concentration not given		activity	inactive
Nc1ncc(-c2nc(N3CCOCC3)nc(N3CCOCC3)n2)c(C(F)F)n1	MYLK4 (Homo sapiens, UniProt Q86YV6)	KINOMEscan		10 µM	relative to: control	remaining binding	87%
CCOC(=O)COc1ccc2c(=O)c3ccccc3oc2c1	ache (Electrophorus electricus, UniProt O42275)	enzyme activity, inhibitor, Lineweaver-Burk plot		0.42 µM	higher = faster reaction	Vmax	0.0055 a.u.
COc1cc(N)c(Cl)cc1C(=O)NC1CN2CCC1CC2 (stereo not drawn)	OXGR1 (Homo sapiens, UniProt Q96P68)	β-arrestin recruitment, TANGO luminescence		concentration not given	relative to: basal luminescence	log2 fold change	0.241
